Measured values gathered from unrelated publications.
Parts stem from different laboratories: compare values within a part only.

Sample 1 — technique: RNA Bind-n-Seq; molecule type: RNA; matrix: in vitro; concentration: 365 nM; relative to: no-protein control; direction: higher = stronger binding
Target: RNA binding protein fox-1 homolog 2, RRM domain, GST-SBP tag (RBFOX2, Homo sapiens, UniProt O43251-10, residues 100-194)
Notes: natural RNA segment, single round, ends assumed
Constant ends, left off below: GGGAGUUCUACAGUCCGACGAUC … UGGAAUUCUCGGGUGCCAA
Residues (chain): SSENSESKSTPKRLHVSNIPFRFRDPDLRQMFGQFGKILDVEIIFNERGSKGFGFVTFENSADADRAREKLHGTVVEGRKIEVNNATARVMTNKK
| Strand | RBNS enrichment (R) |
| --- | --- |
| GGUACUUUGGGGGAACAAAAUAGUCAGGGAUAUUGGUUCCCCUUUGAGGAGGUGCUGCUGUUUGCUUUUAGGUAUGAGUGCUCAGGGGCCCUCACUGAAAGAGCCCAUGC | 1.04 |
| UCCGGGGCAUUCCUGUUGACCCAUCAGCCCCUUCUGUUCUGGCGGCAGGGGCCUUGGGGCUCCUGGAAGCCGUGAGGUUUCUGUUUAGGCCUUAACCGAAGGCAACCUCU | 0.176 |
| UCCAGGAACCCCUGCCAUGAGGCCAUCAUAGAUCCAGACUCGGGAUGUGGGCUCCAAACCAGAAUAGAGCCUCUGCCAAGGAGCUGGAAACAGCCCAGUGAGGCUGAAGU | 0.281 |
| CCUCUGGCCUGCAGGGCAGCCCAAGUCAUGACUCAGACCAGGUCCCACACUGAGCUGCCCACACUCGAGAGCCAGAUAUUUUUGUAGUUUUUAUGCCUUUGGCUAUUAUG | 0.541 |
| GCAGUGAGGGAAGCAGCCCCGGGCCUGCUUGCUUCCUGUCCCCGAAAUGUUCGUUUCUUCUGAAGUAAAUAUACAUAUAUAAAUAAAUGUAUAAAUACUGCUUUGUAUCU | 0.43 |
| UAACAUAUUUCUUCAGACUAACAUCUUAAAACACUGACCUCUAUGAGGUAUUUACUGUGCAAUAACUGAUUCAUUUUUUUCAGAGCUUGAAGCAUCCAAUGAUUUUUCCC | 0.662 |
| UCCUGCCUUAGCCUCCUGAGUAGCUGGGUCAGCCACCAUGGCUGACUCAUUUUUUGUAUUUUUAGUAGAGAAGGGGUUUUACCGUGUUAGCCAGGCUGGUCUUGAACUCC | 1.15 |
| ACAGGCCUCUGGAGCCAGGCGACUUCUUGGGAAACUGUCAUCUCCCGACUCCUCCCUGAGCCAGCCUCCGCUCAGUGUGGCUCCUCAGCCCACAGAGGGGAGGGAGCAUG | 2.59 |
| AGACUGUACAGCCACCCUCAGCUGCCAUCUUUGUCUUCCUGCUGCCACCUCAGGCAGCUGUUACUCAGCCUCCGUUACCUGCUGUAGACUGUCAGCAUCCUCACACAGCG | 0.843 |
| CACAUGUGCAUGCCUGUUUCUUUUUGCCAGGGAGACAACUGAAUUUGGGGCAUUUUUCUACAAACACAGCCUCCUCUCCCCCUGUAUGGACUGGCUAUAACCAUAAGCCA | 5.67 |
| GAUCAGGAAGUUUGAGUGCUAUGCAAAUAACAUAGUAGUAAUUUCUCUUUGCAUGCCAUGUGUAAUAUACCUAGCCAAAACCAGAUGCGGUGACUUUCUUUUUUUGUAAA | 3.15 |
| CAGAAGGGGCUCUUCUCUCCACAGAGCUGGGGUGCAGCCCCAACAUGUGAUUUUGAAUGAGUGUAAAUAAUUUUAAAUAACCUGGCCCUUGGAAUAAAGUUGUUUUCUGU | 0.406 |

Sample 2 — technique: protein-binding microarray; molecule type: double-stranded DNA, one strand shown; matrix: in vitro; concentration: not given; direction: higher = stronger binding
Target: Protein max, full length (MAX, Homo sapiens, UniProt P61244-2, residues 1-151)
Notes: k-mer, scored over probes, only values ≥0.25
| Strand | E-score |
| --- | --- |
| CCGTCACG | 0.299 |
| ACACGCCG | 0.401 |
| CATGCCCG | 0.364 |
| ACATGTTG | 0.389 |
| ATCACACG | 0.369 |
| CACGTTCA | 0.298 |
| AACGTGCG | 0.428 |
| CATACACG | 0.392 |
| CGCGCGGC | 0.301 |
| GGCCACAC | 0.251 |
| ACGGTGTG | 0.263 |
| GCGCGCGC | 0.286 |
| CAGGTGGG | 0.38 |
| ACCCCATG | 0.383 |
| CGAACACG | 0.363 |
| CATAGCAC | 0.289 |

Sample 3 — technique: RNA Bind-n-Seq; molecule type: RNA; matrix: in vitro; concentration: 200 nM; notes: whole 134-nt RNA, ends assumed; together with: 150 mM LiCl; relative to: input library; direction: higher = stronger binding; all molecules: 7-deaza-guanosine replaces G
Target: Fragile X messenger ribonucleoprotein 1, C-terminal low-complexity region (Fmr1, Mus musculus, UniProt P35922)
Constant ends, left off below: GGGAGUUCUACAGUCCGACGAUC … UGGAAUUCUCGGGUGUCAAGG
| Strand | log2 enrichment |
| --- | --- |
| ACCAUGCAGGUGGGCAUCUUUGGGAAGUGGGGUAAGGGGGGGAUAGGGAGGGGGGUAACACUUUGGGAACAGGUGGUCCCAGGUCGUUUC | 1.68 |
| UAAAUUCAUCUGAAAAUGGUGAGGACAGGCACAAACGCAAAGAAAGAAAGUCAUCAAGAGGCAGAAGUCACUCAAGAUCUAGGUCUCGUG | -2.45 |
| UUCAAGGCCAUGAAGGACCUGUUUAUGCGGUGCAUGCUGUUUACCAGAGGAGGACAUCAGAUCCUGCAUUAUGUACACUGAUCGUUUCUG | -1.12 |
| CACAGACAACACGCACCCACACAGACACAGAGGGAAGGGGUUGGGAUGGGGACAAGGUGCACAGCAGGGCGGGGUAGGACCCCAGCCCCU | 0.222 |
| AAGUCCUGUGCUACACAUCGUAUGUACCGAAUCGGGAAAAAAAGGGAAAGGGUGGGAAAGUAUUAUGUUACGCCGUUCGGAUCUGCACUU | -1.26 |
| CUCAAGUCCUGUGCUACACAUCGUAUGUACCGAAUCGGAAAAAGGAGGAAAGGAAAGUAUUAUGUUACGCCGUUCGGAUCUGCACUUCCA | -1.08 |
| CCUGUGCUACACAUCGUAUGUACCGAAUCAAAGUGUGUGUGUGUGAAAUGUGUGUGUGAAAAAAGUAUUAUGUUACGCCGUUCGGAUCUG | -1.48 |
| GAGGAGAUAAUCUCGGAAAAGUUACGGAAACCUGGGAAGUCGGCGAAACCCUACGUUCGGGUGUUUUCGGAAGCAGCCGAAGCGGCCGCC | -1.32 |
| UCCUCCCUGGCUUCAGCCAGUCCCUGACGCUGAGCACUGGCUUCCGAGUCAUCAAGAAGAAGCUGUACAGCUCGGAACAGCUGCUCAUUG | -1.42 |
| UUUCGGCUACCCCCAGUUCUUCUUUGCCAAAGCGUACACGUGAAGAGGAAGAGGAUAGCACCAUAGAAGCAUCAGACCAAGUCUCUGAUG | -1.96 |
| ACCAUGCAGGUGGGCAUCUUUGGGAAGUGGGGCAAGGGGGGGAUAGGGAGGGGGGUAACACUUUGGGAUCAGGUGGUCCCAGGUCGUUUC | 1.41 |

Sample 4 — technique: protein binding microarray; molecule type: double-stranded DNA, one strand shown; matrix: in vitro; concentration: not given; relative to: not given; direction: higher = stronger binding
Target: Histone acetyltransferase KAT6A, both winged helices, GST fusion (KAT6A, Homo sapiens, UniProt Q92794, residues 1-181)
Notes: 8-mer, flanks averaged, mean of 2 arrays, mostly near background
Residues (chain): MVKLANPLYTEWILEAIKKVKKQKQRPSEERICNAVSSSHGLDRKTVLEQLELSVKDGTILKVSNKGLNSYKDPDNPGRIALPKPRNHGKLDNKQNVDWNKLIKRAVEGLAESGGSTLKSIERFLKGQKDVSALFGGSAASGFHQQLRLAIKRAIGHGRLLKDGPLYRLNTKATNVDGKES
| Strand | E-score |
| --- | --- |
| GCTCCGGA | 0.119 |
| ACGTAATG | -0.145 |
| AATGCCTC | -0.149 |
| AGGGCACC | -0.115 |
| AGGACGCA | 0.0533 |
| GAGGCAAA | -0.264 |
| AGAAGCCA | -0.0919 |
| TAGGATAA | -0.0738 |
| AACCCGCA | 0.134 |
| GGCTTGCA | -0.12 |
| AGGGGCAA | -0.187 |
| ATCTCAGG | -0.101 |
| GGGCGTGA | 0.142 |
| GTACCGTA | 0.221 |
| ACAAACCT | -0.243 |
| CAAACGGG | 0.268 |
| AAAAAGAT | -0.0661 |
| GTAATCCA | -0.103 |
| GACCGATA | 0.0361 |
| AATATTAA | 0.0913 |
| TCCTTTCA | -0.0523 |
| CTGGTTTC | 0.016 |
| CGTGGTTC | 0.122 |
| GGTGACCA | -0.128 |
| GGGCGAGA | 0.00102 |

Sample 5 — technique: universal PBM; molecule type: double-stranded DNA, one strand shown; matrix: in vitro; concentration: not given; direction: higher = stronger binding
Target: Sal-like protein 4, full length isoform B (SALL4, Homo sapiens, UniProt Q9UJQ4-2, residues 1-616)
Notes: 8-mer, flanks averaged, mean of replicates
| Strand | E-score |
| --- | --- |
| CCGGCTCG | -0.229 |
| ACTAGCAA | 0.132 |
| CAAAATGG | 0.149 |
| GCACACCA | -0.254 |
| TAACCTTA | 0.167 |
| GAAATATA | 0.436 |
| CACGAATG | 0.116 |
| GACATATC | 0.138 |
| CGCGGGCC | -0.364 |
| AAGGGGAA | -0.18 |
| CGATACCA | 0.0878 |
| GGAACACC | -0.169 |
| AGCGGGTG | -0.19 |
| CACCGTAC | -0.0128 |
| AGCCGCTC | -0.207 |
| GTACTAAA | 0.244 |
| CAGGGCCA | -0.276 |
| CTGTCTAC | -0.0164 |
| ACACAGGA | 0.0275 |
| CGCGGTCC | -0.36 |
| AACGCAAA | 0.0904 |
| GCTTCTCC | -0.159 |
| AGCCACGA | -0.197 |
| ATGAACCG | -0.0293 |
| AATCCAAT | 0.156 |

For quick reference, copied from above (sample 4):
| Strand | E-score |
| --- | --- |
| ACGTAATG | -0.145 |
| AATGCCTC | -0.149 |
| AGGGCACC | -0.115 |
| AGGACGCA | 0.0533 |
| GAGGCAAA | -0.264 |
| AGAAGCCA | -0.0919 |
| TAGGATAA | -0.0738 |
| AACCCGCA | 0.134 |
| GGCTTGCA | -0.12 |
| AGGGGCAA | -0.187 |
| ATCTCAGG | -0.101 |
| GGGCGTGA | 0.142 |
| GTACCGTA | 0.221 |
| ACAAACCT | -0.243 |
| CAAACGGG | 0.268 |
